Results gathered from unrelated publications.
Protocols differ between the studies behind these lines. Several values in a cell are separate wells, animals, samples, runs or records. pIC50: −log10 of the molar value.
CA9: Carbonic anhydrase 9 (CA9, Homo sapiens, UniProt Q16790)
CHEK1: Serine/threonine-protein kinase Chk1 (CHEK1, Homo sapiens, UniProt O14757)
Chain of UniProt O14757 (whole entry, looked up): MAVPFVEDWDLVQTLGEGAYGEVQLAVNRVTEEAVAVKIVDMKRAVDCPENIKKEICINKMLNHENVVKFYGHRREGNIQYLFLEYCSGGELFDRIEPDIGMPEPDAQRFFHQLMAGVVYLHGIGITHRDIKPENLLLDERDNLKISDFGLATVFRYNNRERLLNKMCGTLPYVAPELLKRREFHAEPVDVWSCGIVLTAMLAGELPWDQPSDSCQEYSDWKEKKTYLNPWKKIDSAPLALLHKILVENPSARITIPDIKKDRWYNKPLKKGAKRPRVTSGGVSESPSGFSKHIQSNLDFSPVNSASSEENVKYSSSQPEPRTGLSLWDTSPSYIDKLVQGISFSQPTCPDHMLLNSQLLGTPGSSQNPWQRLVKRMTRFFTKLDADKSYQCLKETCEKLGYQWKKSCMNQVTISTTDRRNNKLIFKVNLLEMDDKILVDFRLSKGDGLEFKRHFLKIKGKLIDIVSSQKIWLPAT
PIK3CA: Phosphatidylinositol 4,5-bisphosphate 3-kinase catalytic subunit alpha isoform (PIK3CA, Homo sapiens, UniProt P42336)
Chain of UniProt P42336 (whole entry, looked up): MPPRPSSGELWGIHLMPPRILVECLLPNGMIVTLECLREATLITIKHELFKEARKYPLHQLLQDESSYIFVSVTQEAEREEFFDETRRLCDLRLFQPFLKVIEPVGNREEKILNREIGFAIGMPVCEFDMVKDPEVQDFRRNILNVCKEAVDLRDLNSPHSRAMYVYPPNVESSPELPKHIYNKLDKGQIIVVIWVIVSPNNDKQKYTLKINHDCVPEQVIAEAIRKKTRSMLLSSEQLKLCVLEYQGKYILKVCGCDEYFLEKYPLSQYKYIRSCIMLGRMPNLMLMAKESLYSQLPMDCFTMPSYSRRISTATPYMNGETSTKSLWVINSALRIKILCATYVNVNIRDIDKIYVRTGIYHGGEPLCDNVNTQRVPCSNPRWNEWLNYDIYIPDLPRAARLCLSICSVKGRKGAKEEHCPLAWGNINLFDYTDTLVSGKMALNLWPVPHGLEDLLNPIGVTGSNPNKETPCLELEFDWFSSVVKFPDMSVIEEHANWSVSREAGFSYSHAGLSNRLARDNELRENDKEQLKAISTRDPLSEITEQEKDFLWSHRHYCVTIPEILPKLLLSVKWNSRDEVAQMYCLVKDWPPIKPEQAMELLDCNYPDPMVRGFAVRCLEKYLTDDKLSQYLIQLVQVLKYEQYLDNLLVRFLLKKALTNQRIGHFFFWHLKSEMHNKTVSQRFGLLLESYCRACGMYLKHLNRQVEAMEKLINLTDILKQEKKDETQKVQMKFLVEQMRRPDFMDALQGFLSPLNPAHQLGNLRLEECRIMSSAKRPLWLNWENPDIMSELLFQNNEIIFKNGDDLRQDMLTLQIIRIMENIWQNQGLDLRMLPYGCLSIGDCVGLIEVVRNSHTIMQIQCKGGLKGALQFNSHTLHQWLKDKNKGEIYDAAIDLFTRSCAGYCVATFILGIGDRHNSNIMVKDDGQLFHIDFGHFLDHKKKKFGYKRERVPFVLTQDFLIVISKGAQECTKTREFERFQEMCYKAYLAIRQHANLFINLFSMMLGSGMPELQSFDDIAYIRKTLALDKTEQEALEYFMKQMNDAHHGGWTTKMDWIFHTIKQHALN
FLT3 ITD: Receptor-type tyrosine-protein kinase FLT3 (FLT3, Homo sapiens, UniProt P36888, ITD)
rep main protease: Replicase polyprotein 1ab, main protease (rep, Porcine epidemic diarrhea virus, UniProt P0C6Y4)
PIK3CD: Phosphatidylinositol 4,5-bisphosphate 3-kinase catalytic subunit delta isoform (PIK3CD, Homo sapiens, UniProt O00329)
Chain of UniProt O00329 (whole entry, looked up): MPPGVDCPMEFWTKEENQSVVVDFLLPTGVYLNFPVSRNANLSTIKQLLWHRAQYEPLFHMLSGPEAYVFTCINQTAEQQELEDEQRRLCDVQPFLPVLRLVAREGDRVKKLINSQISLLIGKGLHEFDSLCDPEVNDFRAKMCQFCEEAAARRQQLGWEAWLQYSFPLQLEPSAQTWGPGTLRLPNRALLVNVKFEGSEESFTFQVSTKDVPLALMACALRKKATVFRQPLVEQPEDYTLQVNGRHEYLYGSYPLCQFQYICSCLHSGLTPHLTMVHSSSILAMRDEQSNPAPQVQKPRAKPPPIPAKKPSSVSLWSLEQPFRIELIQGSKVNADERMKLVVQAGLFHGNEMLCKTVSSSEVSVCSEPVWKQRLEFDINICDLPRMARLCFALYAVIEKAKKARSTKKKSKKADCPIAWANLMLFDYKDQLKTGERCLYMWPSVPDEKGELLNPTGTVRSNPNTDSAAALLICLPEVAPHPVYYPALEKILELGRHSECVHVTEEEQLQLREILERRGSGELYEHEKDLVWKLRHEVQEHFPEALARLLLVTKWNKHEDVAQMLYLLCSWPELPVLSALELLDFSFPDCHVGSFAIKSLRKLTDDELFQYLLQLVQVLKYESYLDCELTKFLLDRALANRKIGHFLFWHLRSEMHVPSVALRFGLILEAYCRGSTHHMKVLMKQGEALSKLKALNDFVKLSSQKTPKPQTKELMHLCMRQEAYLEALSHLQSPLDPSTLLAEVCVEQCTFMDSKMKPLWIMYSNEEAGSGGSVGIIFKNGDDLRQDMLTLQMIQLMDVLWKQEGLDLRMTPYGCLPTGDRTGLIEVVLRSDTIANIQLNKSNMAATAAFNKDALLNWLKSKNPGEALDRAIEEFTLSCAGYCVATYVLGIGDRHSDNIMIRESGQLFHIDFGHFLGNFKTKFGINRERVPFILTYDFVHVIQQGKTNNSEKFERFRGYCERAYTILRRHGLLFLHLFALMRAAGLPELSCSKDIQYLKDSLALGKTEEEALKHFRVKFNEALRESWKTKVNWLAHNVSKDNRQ
DYRK1A: Dual specificity tyrosine-phosphorylation-regulated kinase 1A (DYRK1A, Homo sapiens, UniProt Q13627)
PIK3CG: Phosphatidylinositol 4,5-bisphosphate 3-kinase catalytic subunit gamma isoform (PIK3CG, Homo sapiens, UniProt P48736)
AMY2: Pancreatic alpha-amylase (AMY2, Sus scrofa, UniProt P00690)
Chain of UniProt P00690 (whole entry, looked up): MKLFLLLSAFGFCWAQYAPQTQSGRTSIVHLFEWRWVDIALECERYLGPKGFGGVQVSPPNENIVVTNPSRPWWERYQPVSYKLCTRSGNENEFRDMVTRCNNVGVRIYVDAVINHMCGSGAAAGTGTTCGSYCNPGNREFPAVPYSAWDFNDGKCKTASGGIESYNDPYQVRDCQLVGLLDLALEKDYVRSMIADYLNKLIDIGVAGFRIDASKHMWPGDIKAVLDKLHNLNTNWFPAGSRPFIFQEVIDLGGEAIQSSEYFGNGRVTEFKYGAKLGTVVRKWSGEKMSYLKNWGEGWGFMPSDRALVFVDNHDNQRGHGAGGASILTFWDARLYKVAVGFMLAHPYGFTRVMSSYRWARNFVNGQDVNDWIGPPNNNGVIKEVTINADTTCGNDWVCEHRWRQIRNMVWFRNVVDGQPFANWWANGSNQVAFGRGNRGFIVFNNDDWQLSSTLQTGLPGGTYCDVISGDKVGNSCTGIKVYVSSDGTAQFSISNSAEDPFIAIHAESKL
PPO3: PPO3 (Agaricus bisporus, UniProt C7FF04)
Chain of UniProt Q96GD4 (whole entry, looked up): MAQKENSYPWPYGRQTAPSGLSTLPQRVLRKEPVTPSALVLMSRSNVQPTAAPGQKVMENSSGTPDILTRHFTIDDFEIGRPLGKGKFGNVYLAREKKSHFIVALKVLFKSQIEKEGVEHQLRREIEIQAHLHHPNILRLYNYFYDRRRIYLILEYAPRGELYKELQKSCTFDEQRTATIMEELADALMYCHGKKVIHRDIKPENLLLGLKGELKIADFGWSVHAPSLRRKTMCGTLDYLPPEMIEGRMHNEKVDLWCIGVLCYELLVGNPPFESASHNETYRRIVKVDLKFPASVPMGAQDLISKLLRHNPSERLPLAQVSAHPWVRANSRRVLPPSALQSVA
Chain of UniProt C7FF04 (whole entry, looked up): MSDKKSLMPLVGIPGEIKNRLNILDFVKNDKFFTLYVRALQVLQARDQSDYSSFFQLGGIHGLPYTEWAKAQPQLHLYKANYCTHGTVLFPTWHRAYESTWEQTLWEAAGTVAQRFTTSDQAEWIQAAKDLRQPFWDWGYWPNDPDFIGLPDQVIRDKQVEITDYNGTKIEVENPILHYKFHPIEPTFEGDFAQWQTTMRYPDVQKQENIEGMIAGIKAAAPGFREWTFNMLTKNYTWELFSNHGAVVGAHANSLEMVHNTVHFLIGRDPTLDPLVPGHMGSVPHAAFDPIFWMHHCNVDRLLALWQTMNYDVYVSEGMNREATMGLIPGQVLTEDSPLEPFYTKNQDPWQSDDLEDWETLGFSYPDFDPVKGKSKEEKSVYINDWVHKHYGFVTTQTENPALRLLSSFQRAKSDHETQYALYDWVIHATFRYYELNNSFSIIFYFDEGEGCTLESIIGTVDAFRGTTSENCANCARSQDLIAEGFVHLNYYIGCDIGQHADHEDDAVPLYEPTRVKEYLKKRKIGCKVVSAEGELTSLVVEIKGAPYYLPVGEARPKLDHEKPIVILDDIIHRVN

Cn1nc2c(=O)n(C3CC3)ncc2c1[C@](N)(c1ccc(C(F)(F)F)c(Cl)c1)C1CC1  pIC50 (CYP2C19 (Homo sapiens, UniProt P33261); enzyme activity, inhibitor; human, liver microsomes; pH 7.4): < 4.70
Cc1cc(C(=O)CN2CCN(C(=O)c3ccc(-c4cn(C)nn4)c(F)c3)CC2)c(C)n1-c1ccc(S(N)(=O)=O)cc1  pIC50 (CA9; enzyme activity, inhibitor): 7.46
Nc1ccc(/N=N/c2ccccc2)c(N)n1  pIC50 (TRPM8 (Homo sapiens, UniProt Q7Z2W7); ion current, antagonist, patch clamp): 6.47
N#Cc1cnc(NC(=O)Nc2cc(Cl)ccc2OC2CC(O)C(O)C2)cn1 (centres unmarked)  pIC50 (CHEK1; enzyme activity, inhibitor): 8.34
COc1ccc(Cl)cc1C(=O)NCCc1ccc(S(=O)(=O)NC(=O)NC2CCCCC2)cc1  pIC50 (SLC22A6 (Homo sapiens, UniProt Q4U2R8, Y230F); transporter uptake, inhibitor, fluorescence): 5.20
O=C1C(=Nc2ccc(Cl)cc2)c2ccccc2N1Cc1ccc([N+](=O)[O-])cc1  pIC50 (PIK3CA; enzyme activity, inhibitor, ADP detection): 7.80
Cc1n[nH]c2ccc3nc(-c4ccc(C(=O)N(C)CCN(C)C)nc4)c4c(c3c12)CCCCC4  pIC50 (FLT3 ITD; enzyme activity, inhibitor): < 6.00
CC[C@@](O)(c1cnc(C(F)(F)F)c(Cl)c1)c1c2cnn(C3CC3)c(=O)c2nn1C  pIC50 (Dhodh (Mus musculus, UniProt O35435); enzyme activity, inhibitor, absorbance): 5.06
O=C(NCc1cc(O)c(O)c(Br)c1)c1ccno1  pIC50 (rep main protease; enzyme activity, inhibitor, FRET): 5.64
COC(=O)c1ccc2[nH]cc(C3CCN(C(=O)c4cc(C)c(C)c(S(N)(=O)=O)c4)CC3)c2c1  pIC50 (CA9; enzyme activity, inhibitor): 6.82
COc1cc(-c2ccc3c(c2)Nc2ccc(-c4cccc(N)c4)cc2NC3=O)ccc1[N+](=O)[O-]  pIC50 (CHEK1; enzyme activity, inhibitor): 6.84
CCCCC(=O)Nc1ccc(-c2ccc3ncn(CCC)c(=O)c3c2)cn1  remaining binding (PIP4K2C (Homo sapiens, UniProt Q8TBX8); binding, competition with immobilised ligand; 0.5 µM): 0.1%
CCc1ccc(N=C2C(=O)N(Cc3ccccc3)c3ccccc32)cc1  pIC50 (PIK3CD; enzyme activity, inhibitor, ADP detection): 7.03
COc1cc(-c2cncc3c2CN(C)Cc2cc(N4CCNCC4)ccc2-3)cc(OC)c1OC  remaining activity (HIPK4 (Homo sapiens, UniProt Q8NE63); enzyme activity, inhibitor; 1 µM): 116%
NS(=O)(=O)c1cccc(NC(=O)COC(=O)c2ccc(-c3ccc(O)cc3)cc2)c1  pIC50 (CA9; enzyme activity, inhibitor): 6.59
CNc1ncc2c(/C=C/C(=O)N3CCC(OC)CC3)nn(Cc3cccc(C(F)(F)F)c3)c2n1  remaining activity (NEK7 (Homo sapiens, UniProt Q8TDX7); enzyme activity, inhibitor, radiometric; 1 µM): 112%
COc1ccc(Cl)cc1NC(=O)Nc1ccc(I)cn1  pIC50 (CHEK1; enzyme activity, inhibitor): 5.96
COC(=O)c1cc(S(N)(=O)=O)ccc1NCc1cccc(NC(=O)Nc2cccc(C)c2)c1  pIC50 (CA9; enzyme activity, inhibitor): 6.09
CN1CCN(c2nccc(-c3cnn4ncccc34)n2)CC1  pIC50 (DYRK1A; cell-free assay, TR-FRET): 6.02
Cc1nc(Nc2ccc3c(c2)/C(=C/c2ccccc2)C(=O)N3Cc2ccccc2)c2ccccc2n1  pIC50 (PIK3CA; enzyme activity, inhibitor, ADP detection): 7.26
CC(C)c1cccc(C(C)C)c1N=C1C(=O)N(Cc2cccc(Cl)c2)c2ccccc21  pIC50 (PIK3CG; enzyme activity, inhibitor, ADP detection): 8.07
Cc1csc(Nc2ccc(NC(=O)c3cc(S(N)(=O)=O)cc(C)c3C)cc2)n1  pIC50 (CA9; enzyme activity, inhibitor): 6.76
Cc1c(N2CCOCC2)oc2c(-c3ccc(Nc4ncc5cc(C(=O)N(C)C)n(C6CCCC6)c5n4)cc3F)cccc2c1=O  pIC50 (PIK3CD; enzyme activity, inhibitor, radiometric): 5.56
Clc1ccc(/C=N/N=C/c2ccc(Cl)cc2Cl)c(Cl)c1  pIC50 (AMY2; enzyme activity, inhibitor): 3.49
CC(C)C[C@@H]1CN(c2nccc(-c3cnn4ncccc34)n2)CCN1  pIC50 (DYRK1A; cell-free assay, TR-FRET): 6.51
O=C(CSc1nc2ccccc2cc1C=Nn1c(S)nnc1-c1ccccc1)NCCc1ccccc1  pIC50 (PPO3; enzyme activity, inhibitor): 5.01
Cc1ccc(-n2ncc(C(=O)NC[C@@]3(C4CC4)NC(=O)NC3=O)n2)cc1  pIC50 (A disintegrin and metalloproteinase with thrombospondin motifs 7 (Homo sapiens, UniProt Q9UKP4); enzyme activity, inhibitor, FRET): > 7.30
CC(C)c1cccc(C(C)C)c1N=C1C(=O)N(Cc2ccccc2)c2ccccc21  pIC50 (PIK3CA; enzyme activity, inhibitor, ADP detection): 7.43
CC1CCCN(c2cc(C(=O)N3CCN(c4ccc(S(N)(=O)=O)cc4)CC3)ccn2)C1 (centres unmarked)  pIC50 (CA9; enzyme activity, inhibitor): 7.08
CN(C)C(=O)c1cc2cnc(Nc3cc(C(F)(F)F)c(-c4cccc5c(=O)cc(N6CCOCC6)oc45)cn3)nc2n1C1CCCC1  pIC50 (Cyclin-dependent kinase 4, with cyclin D1 (CDK4, Homo sapiens, UniProt P11802); enzyme activity, inhibitor, radiometric): < 5.00
Clc1cccc(/C=N/N=C/c2cccc(Cl)c2)c1  pIC50 (AMY2; enzyme activity, inhibitor): 3.43
COc1ccc(Nc2n[nH]c3c2Cc2ccccc2-3)cc1  pIC50 (CHEK1; enzyme activity, inhibitor): < 5.00
O=C(O)CCCOc1cccc(CNC(=O)C#Cc2cn(Cc3ccc(C(=O)O)cc3)c(=O)[nH]c2=O)c1  pIC50 (Collagenase 3 (MMP13, Homo sapiens, UniProt P45452); enzyme activity, inhibitor): 8.24
O=C1Nc2ccccc2/C1=N\c1ccc(Cl)cc1  pIC50 (PIK3CA; enzyme activity, inhibitor, ADP detection): 6.44
CN(C)C(=O)c1cc2cnc(Nc3ccc4c(=O)cc(N5CCOCC5)oc4c3)nc2n1C1CCCC1  pIC50 (Aurora kinase B (AURKB, Homo sapiens, UniProt Q96GD4); enzyme activity, inhibitor): 7.83 and > 7.48
O=C(NCc1cc(O)c(O)c(Br)c1)c1ccc(OC(F)(F)F)cc1  pIC50 (rep main protease; enzyme activity, inhibitor, FRET): 5.37
COc1cc2ncnc(N(C)c3ccc4c(c3)/C(=C/c3ccccc3)C(=O)N4C)c2cc1OC (mixture of isomers)  pIC50 (PIK3CG; enzyme activity, inhibitor, ADP detection): 7.04
COc1cc(-c2ccc3c(c2)Nc2ccc(NC(=O)c4cn[nH]c4)cc2NC3=O)ccc1[N+](=O)[O-]  pIC50 (CHEK1; enzyme activity, inhibitor): 8.26
c1cc(CN2CCCNCCNCCCNCC2)ccc1CN1CCCNCCNCCCNCC1  pIC50 (C-X-C chemokine receptor type 4 (Mus musculus, UniProt P70658); ligand displacement in cells, flow cytometry): 7.09
COCCCNCC(O)COc1cccc2[nH]c(C)cc12 (centres unmarked)  pIC50 (ADRB2 (Homo sapiens, UniProt P07550); calcium signal, antagonist, fluorescence): 8.77
CC1Cc2cc(S(N)(=O)=O)ccc2N1C(=O)CN1CCN(C(=O)c2ccc(O)cc2)CC1 (centres unmarked)  pIC50 (CA9; enzyme activity, inhibitor): 7.02
CN1CCN(C(=O)c2ccc(-c3nc4ccc5[nH]ncc5c4c4c3CCCC4)cc2)CC1  pIC50 (FLT3 ITD; enzyme activity, inhibitor): < 6.00
O=C1C(=Nc2ccccc2Br)c2ccccc2N1Cc1ccccc1  pIC50 (PIK3CD; enzyme activity, inhibitor, ADP detection): 7.13
Clc1ccc(C2(c3ccc(-c4cn[nH]c4)cc3)CCNCC2)cc1  pIC50 (LATS1 (Homo sapiens, UniProt O95835); enzyme activity, inhibitor, radiometric): 6.97
O=C(NCc1cc(O)c(O)c(Br)c1)c1cccc(C(F)(F)F)c1  pIC50 (rep main protease; enzyme activity, inhibitor, FRET): 5.09
c1cnn2ncc(-c3ccnc(N4CCCCC4)n3)c2c1  pIC50 (DYRK1A; cell-free assay, TR-FRET): 6.32
Cc1cc([C@@H](C)Nc2ccccc2C(=O)O)c2nc(N3CCC(F)(F)CC3)c(C#N)c(=O)n2c1  remaining binding (MAP2K1 (Homo sapiens, UniProt Q02750); binding, competition with immobilised ligand; 10 µM): 93%
COC(=O)Cc1ccc2c(c1)NC(=O)c1ccc(-c3cccc(C#N)c3)cc1N2  pIC50 (CHEK1; enzyme activity, inhibitor): 6.72
Cc1nc(Nc2ccc3c(c2)/C(=C/c2ccccc2)C(=O)N3C)c2ccccc2n1  pIC50 (PIK3CA; enzyme activity, inhibitor, ADP detection): 7.73
CN(C)C(=O)c1cc2cnc(Nc3cc(C(=O)O)cc(-c4cccc5c(=O)cc(N6CCOCC6)oc45)c3)nc2n1C1CCCC1  pIC50 (PIK3CD; enzyme activity, inhibitor, radiometric): 5.33
COc1cc(-c2ccc3c(c2)Nc2ccc(CC(=O)O)cc2NC3=O)ccn1  pIC50 (CHEK1; enzyme activity, inhibitor): 6.43
C=CC(=O)N1CCC(COCC(=O)N2CCN(c3nc(-c4cnc(N)nc4C(F)F)nc(N4CCOC[C@@H]4C)n3)CC2)CC1  remaining binding (GRK7 (Homo sapiens, UniProt Q8WTQ7); binding, competition with immobilised ligand; 1 µM): 100%
CN(C(=O)c1ccc(Cl)c(S(N)(=O)=O)c1)C(CNC(=O)OC(C)(C)C)C1CC1 (centres unmarked)  pIC50 (CA9; enzyme activity, inhibitor): 7.17
O=C1C(=Nc2ccc(Cl)cc2)c2ccccc2N1Cc1ccc(Br)cc1  pIC50 (PIK3CD; enzyme activity, inhibitor, ADP detection): 7.07
N#Cc1cnc(NC(=O)Nc2cc(O)[nH]n2)cn1  pIC50 (CHEK1; enzyme activity, inhibitor): < 5.00
Cc1ccc(NC(=O)CSc2nc3ccccc3cc2C=Nn2c(S)nnc2-c2ccccc2)cc1  pIC50 (PPO3; enzyme activity, inhibitor): 4.51

Some of these lines once more:
O=C(O)CCCOc1cccc(CNC(=O)C#Cc2cn(Cc3ccc(C(=O)O)cc3)c(=O)[nH]c2=O)c1  pIC50 (Collagenase 3 (MMP13, Homo sapiens, UniProt P45452); enzyme activity, inhibitor): 8.24
O=C1Nc2ccccc2/C1=N\c1ccc(Cl)cc1  pIC50 (PIK3CA; enzyme activity, inhibitor, ADP detection): 6.44
CN(C)C(=O)c1cc2cnc(Nc3ccc4c(=O)cc(N5CCOCC5)oc4c3)nc2n1C1CCCC1  pIC50 (Aurora kinase B (AURKB, Homo sapiens, UniProt Q96GD4); enzyme activity, inhibitor): 7.83 and > 7.48
O=C(NCc1cc(O)c(O)c(Br)c1)c1ccc(OC(F)(F)F)cc1  pIC50 (rep main protease; enzyme activity, inhibitor, FRET): 5.37
